Assay results of several laboratories.
Every numbered part comes from another study and shows a few of its results, in no order.

Series 1 — method: RNA Bind-n-Seq; form: RNA; sample: in vitro; tested at: 1 µM; setting: whole 134-nt RNA, ends assumed; together with: 150 mM KCl; baseline: input library; direction: higher = stronger binding; measurement: log2 enrichment
Target: Ras GTPase-activating protein-binding protein 1, RRM domain (G3BP1, Homo sapiens, UniProt Q13283)
Chain of UniProt Q13283 (whole entry, looked up): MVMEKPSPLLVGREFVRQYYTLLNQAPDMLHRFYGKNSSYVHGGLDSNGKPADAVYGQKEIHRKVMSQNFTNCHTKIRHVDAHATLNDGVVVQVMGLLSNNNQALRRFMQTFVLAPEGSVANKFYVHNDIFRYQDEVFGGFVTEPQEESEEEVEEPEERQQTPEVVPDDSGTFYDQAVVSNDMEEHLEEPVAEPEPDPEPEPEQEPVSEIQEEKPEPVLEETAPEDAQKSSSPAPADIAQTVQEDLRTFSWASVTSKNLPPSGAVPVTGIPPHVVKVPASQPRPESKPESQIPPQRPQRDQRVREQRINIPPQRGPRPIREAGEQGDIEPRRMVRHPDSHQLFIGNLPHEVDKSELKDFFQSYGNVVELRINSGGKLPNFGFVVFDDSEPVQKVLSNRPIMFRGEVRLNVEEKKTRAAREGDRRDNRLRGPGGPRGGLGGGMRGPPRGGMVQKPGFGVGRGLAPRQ
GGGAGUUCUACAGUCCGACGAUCUCCUCAAGUCCUGUGCUACACAUCGUAUGUACCGAAUCGGAGGAGGGAGGGAAAGUAUUAUGUUACGCCGUUCGGAUCUGCACUUCCAGCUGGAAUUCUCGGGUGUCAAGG: -0.285
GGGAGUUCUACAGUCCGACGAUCGCAGGAAGUAAAAACAAAUGGAAAUGCUUCGGAUAGUGGCAGGGGUGGGGGUUGCUAAGGAAAGGGUGGGAUGGGAGUGGGUAAAGGGUUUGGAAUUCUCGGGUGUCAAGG: 0.807
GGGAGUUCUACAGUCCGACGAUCAAGUCCUGUGCUACACAUCGUAUGUACCGAAUCGGGUUUUGGGGUUUUGGUUUUGGAAAGUAUUAUGUUACGCCGUUCGGAUCUGCACUUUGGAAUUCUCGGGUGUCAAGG: -0.306
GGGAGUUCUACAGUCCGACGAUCAAGUCCUGUGCUACACAUCGUAUGUACCGAAUCGGAGGUUUUUUUGGAAAAAAAGGAAAGUAUUAUGUUACGCCGUUCGGAUCUGCACUUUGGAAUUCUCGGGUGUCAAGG: -0.19
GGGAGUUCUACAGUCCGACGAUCUGGCCAUGGUGGCAUGCGGGGAGGAAGAGGUGGCCUCAUGGAUCGUGGUGGUCCCGGUGGAAUGUUCAGAGGUGGCCGUGGUGGAGACAGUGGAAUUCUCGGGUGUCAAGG: 0.616
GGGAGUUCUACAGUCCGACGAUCCCUGUGCUACACAUCGUAUGUACCGAAUCGGGGUUUUUUUGGGGUUUUUUUGGGGUGGGGAAAGUAUUAUGUUACGCCGUUCGGAUCUGCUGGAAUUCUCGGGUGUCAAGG: 0.16
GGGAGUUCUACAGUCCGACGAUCUCCUGUGCUACACAUCGUAUGUACCGAAUCGGGGCCCCCCGGCCCCCCGGGCCCCCCGGAAAGUAUUAUGUUACGCCGUUCGGAUCUGCAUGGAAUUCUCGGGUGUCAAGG: -0.353
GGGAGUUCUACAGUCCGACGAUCUGGGAGGUGGAUUUUGUUUAUUUUUUUAGCUCAUUUCCAGGGGUGGGAAUUUUUUUUUAAUAUGUGUCAUGAAUAAAGUUGUUGUUGAAAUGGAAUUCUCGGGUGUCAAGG: 1.79
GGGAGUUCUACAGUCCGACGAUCAGUCCUGUGCUACACAUCGUAUGUACCGAAUCGGGUGGGAAAAAGGGUUUUUUUGGGAAAGUAUUAUGUUACGCCGUUCGGAUCUGCACUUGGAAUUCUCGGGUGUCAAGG: 0.503

Series 2 — method: RNA Bind-n-Seq; form: RNA; sample: in vitro; tested at: not given; baseline: input RNA pool; direction: higher = stronger binding; measurement: bound/input enrichment
Target: RING finger protein unkempt homolog, zinc fingers 1-6, GST-SBP tag (UNK, Homo sapiens, UniProt Q9C0B0, residues 30-357)
Chain of UniProt Q9C0B0 (30-357, looked up): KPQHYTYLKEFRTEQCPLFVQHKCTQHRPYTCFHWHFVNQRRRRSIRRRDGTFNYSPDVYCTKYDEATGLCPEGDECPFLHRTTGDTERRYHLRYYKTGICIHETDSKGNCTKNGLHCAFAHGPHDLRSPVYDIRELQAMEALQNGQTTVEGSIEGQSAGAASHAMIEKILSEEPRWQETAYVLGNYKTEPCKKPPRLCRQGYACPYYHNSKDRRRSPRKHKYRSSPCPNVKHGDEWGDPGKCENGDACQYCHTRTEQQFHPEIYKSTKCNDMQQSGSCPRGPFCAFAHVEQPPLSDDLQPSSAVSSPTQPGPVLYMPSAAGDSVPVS
Setting: RNA with constant flanks, human and mouse sites, ends assumed
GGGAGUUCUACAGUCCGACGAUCCCUGUCUCAGGUUCAAAAGCUGCUUUGCAUGUGCCCAGUAGAUUUUCAUGGAAUCUUCCAACUAGAUGAAAGACGGAGAGAUGCAGUGAUUGCAUUGGGCAUUUUUCUCAUUGAAUCUGACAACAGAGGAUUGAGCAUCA: 0.218 ratio
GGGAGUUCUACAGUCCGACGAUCCACAGGGCGACGGGAAGCCUGCAGCAGGCCCUCGUGUGCUUCGAGAAGAGGCUGGUGGUGGCCCAUGAGCUCGGGGAGGCCUCCAAUAAAGCUCAGGCCUACGGAGAGCUGGGAAGCCUCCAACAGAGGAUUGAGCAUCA: 0.0927 ratio
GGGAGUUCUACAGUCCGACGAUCAUGGAUGACAAGGCCUCUGUUGGAAAAAUCAGUGUCUCAUCAGACUCAGUGUCUACUCUUAAUAGUGAAGAUUUUGUCUUGGUUUCCAGGCAAGGAGAUGAGACACCAUCUACAAAUAAUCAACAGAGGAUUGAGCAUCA: 0.907 ratio
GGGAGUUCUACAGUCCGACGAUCAGAGUCAAAGUUCUUCAAGAUUACACUGGCCUUAUACUCUUCCUGGAAGAGGACCACUACUUAGCCCCAGACUUUUACCAUGUCUUCAAAAAGAUGUGGAAACUGAAGCAGCAGGAGUGUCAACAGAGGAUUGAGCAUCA: 0.15 ratio
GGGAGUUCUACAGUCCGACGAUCUUCUAGAACUGGUAGCUCGGUCGUUUCGCACACUAGGUGGCAUACAGGCAGCAGCAGGUGUUCAUAUCCUUGAUUUUGAGAAUUUCCCCUCAAGUAUGUGGCAGUAAAUACAACAAGACACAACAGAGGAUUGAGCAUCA: 0.408 ratio
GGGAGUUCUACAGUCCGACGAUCUAAGAAAUUGUUAUUCUACUAAUAUUUACUUGUGAUUGUGUGACAAGUGUGUUUACAGAUUAUUGGUUACACUUCAAUUUACAGGGCAUAAACAAUGAUUAUCUAUUACUCUGAACUUUACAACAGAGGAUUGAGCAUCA: 0.385 ratio
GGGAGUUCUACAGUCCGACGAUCUAGUGAAUGGUUUCCCCAGUGUAUAUGAAUGUUUUAAGUGUCUCCAAUAGCUUAUGCAGUCUAGGAGCUUUCCAAUACUCAUUUAAUUAAGAUUUAAUCAUUUGCUAAUGGAAAUCUUACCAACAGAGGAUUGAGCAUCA: 0.566 ratio
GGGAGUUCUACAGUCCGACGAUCUAAAGUUUUUAUACAGCCUCAAAUUGUUUUAUUAAAAAAAAGAUUUAAAAUGGUGAUGCUUACAGCAGUUUGUACGAGCUCUUAAGUGUUGAUUCCAUGGAACUGACGGCUUUGCUUGUUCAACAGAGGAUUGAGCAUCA: 0.353 ratio

Series 3 — method: protein-binding microarray; form: double-stranded DNA, one strand shown; sample: in vitro; tested at: 940 nM top; setting: 60-bp whole probe; together with: salmon DNA 0.4 mg/ml; baseline: random background probes; direction: higher = stronger binding; measurement: fitted relative affinity; all sequences stand within: GCCTAGCAC … GTCTTGATTCGCTTGACGCTGCTG
Target: Interferon regulatory factor 5, full length, phosphomimetic (IRF5, Homo sapiens, UniProt Q13568-2, residues 1-514, S451D/S453D/S456D/S462D)
TCATACATGTGTTTAAGACTGTGCTAG: -0.352 z-score
CACTCTCTGCTTGTGTCTGGGTGCTAG: 2.77 z-score
GACGATTCCAGTTTGGAGACGTGCTAG: 0.176 z-score
TCATGTTTTAAATTCTAACTGTGCTAG: 0.405 z-score
GACGGACTGGGACGGGGGACGTGCTAG: 0.631 z-score
GACGGACTGGACTATCGGGGCGTGCTA: -0.724 z-score
GACGGTATCGGGACTGGGAACGTGCTA: 3.06 z-score
GTCGGTCTCCTACTGCTGACGTGCTAG: 0.247 z-score
TTAGGTATCTACTTTCGGTTAGTGCTA: 4.48 z-score
TTAGGTCTCGGTTTCGGTTTGTGCTAG: 9.45 z-score
GACGGACTGGGGCTGGGGACGTGCTAG: 0.231 z-score
GACGAACTGGGATTTCGAGACGTGCTA: -0.289 z-score
GACGAACTGATACTGGAGACGTGCTAG: -0.0217 z-score
TTAGGACTCGACTTTCGGTTAGTGCTA: 2.71 z-score
TTGACTCTTTCTGTCAGTTTGTGCTAG: 1.15 z-score
CTAGAGATTTTTCTCAACCGGTGCTAG: -0.43 z-score
TCAAGGTTCTCTTTTATACTGTGCTAG: 0.303 z-score
TTTGGTCTCGGTCTCGGTTAGTGCTAG: 7.92 z-score

Series 4 — method: protein binding microarray; form: double-stranded DNA, one strand shown; sample: in vitro; tested at: not given; baseline: not given; direction: higher = stronger binding; measurement: E-score
Target: Histone acetyltransferase KAT6A, both winged helices, GST fusion (KAT6A, Homo sapiens, UniProt Q92794, residues 1-181)
Setting: 8-mer, flanks averaged, mean of 2 arrays, mostly near background
Target sequence (chain): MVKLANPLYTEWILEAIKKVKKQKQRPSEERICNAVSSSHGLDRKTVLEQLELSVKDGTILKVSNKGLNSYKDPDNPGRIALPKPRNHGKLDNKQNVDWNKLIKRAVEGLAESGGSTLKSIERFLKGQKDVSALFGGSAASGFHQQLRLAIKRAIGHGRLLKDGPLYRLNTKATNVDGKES
CACCGAGC: -0.0095
ACATGCTC: 0.0347
TCCCTCCA: -0.122
CACCGAAC: 0.115
CATCAATA: -0.194
AGTCATCC: -0.0775
GAGTTAAA: -0.0875
AAGAATCC: -0.066
AGCAGAAG: -0.0538
AGGACCAC: -0.133
ATCATAAG: -0.0768
CTTGTGAA: -0.0699
GTCAAAAA: -0.0895
AGCCCCGG: 0.0516
CTAAAGAC: -0.0452
CCGTATTA: 0.212
ATGGACGC: 0.158
ATATTACG: 0.0902
ATCCGGGG: 0.039
AACCCACG: -0.148
CCGTAAGA: 0.11

Some of these lines once more (series 4):
ATATTACG: 0.0902
GAGTTAAA: -0.0875
CTTGTGAA: -0.0699
TCCCTCCA: -0.122
CCGTATTA: 0.212
CTAAAGAC: -0.0452
ATCATAAG: -0.0768
ACATGCTC: 0.0347
GTCAAAAA: -0.0895
